# Assay results from different studies.
# Each numbered part is a random draw from the data of one study; scales do not carry over between parts.

# Block 1
# Target: Interferon regulatory factor 5, full length, phosphomimetic (IRF5, Homo sapiens, UniProt Q13568-2, residues 1-514, S451D/S453D/S456D/S462D)
# Method: protein-binding microarray
# Molecule type: double-stranded DNA, one strand shown
# Medium: in vitro
# Concentration: 940 nM top
# Notes: 60-bp whole probe
# Together with: salmon DNA 0.4 mg/ml
# Baseline: random background probes
# Reading: higher = stronger binding
# All sequences stand within: GCCTAGCAC … GTCTTGATTCGCTTGACGCTGCTG
Strand,fitted relative affinity [z-score]
TTAGGTATCGGTTACGGTTAGTGCTAG,10.4
AGGAGTATTTATCTGCAAAGGTGCTAG,-0.278
TGGCCTCTAGGTTTTCTGAAGTGCTAG,-0.296
TTAGGTATCAGGACTGGGTTAGTGCTA,1.32
TTAGGTCTCCTTTTCTTTTAGTGCTAG,1.02

# Block 2
# Target: RNA binding protein fox-1 homolog 2, RRM domain, GST-SBP tag (RBFOX2, Homo sapiens, UniProt O43251-10, residues 100-194)
# Method: RNA Bind-n-Seq
# Molecule type: RNA
# Medium: in vitro
# Concentration: 365 nM
# Notes: natural RNA segment, single round, ends assumed
# Baseline: no-protein control
# Reading: higher = stronger binding
# All sequences stand within: GGGAGUUCUACAGUCCGACGAUC … UGGAAUUCUCGGGUGCCAA
# Residues (chain): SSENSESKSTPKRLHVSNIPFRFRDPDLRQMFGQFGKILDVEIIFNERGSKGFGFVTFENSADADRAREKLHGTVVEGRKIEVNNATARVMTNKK
Strand,RBNS enrichment (R)
AGCCAUGCAGUUACAUCUCUUUCUAAAUGAGGUCAGGUUUGCAAAUAAUAACAACAAAAAAGCUUUGUUUAGUCUUUGUUUUGUUUUCCAGGACAAAAACAAGCUUCCCU,0.457
AUCAUCAGAAUGCAUUCUUUUUUUUUUCGGAGACGGAGUUUCACUCUUGCUGCCCAGGCUGGAGUGCAAUGGUGCAAUGACCUCGGCUCACUGCAACCUCUGCCUCCUGG,0.194
CCGGUGUGGUGGCUCCCCAUGCAGGACGGGCCAGGCUGGGAGUGCCGCCUUCCUGUGCCAAAUUCAGUGGGGACUCAGUGCCCAGGCCCUGGCCACGAGCUUUGGCCUUG,0.314
GGGCUUCUCAGAGGUGGAGCUGGUGCAGAUGGUGGUGGACGGAGUGAAGCUGCUCAUCGAGAUGGAGCAGCGGCUGGAGCAGGGCCAGGCCAUCGACGACCUCAUGCCUG,1.1
GAGAAAGUUCAAGUUAGCUUCAGUCCUUCAGUGAUAGGCAACCUAGGUUUUCUAGAGUUUAAUUCUUUAUCAGCCAGGCAAUGACUCUGAACUCUGAAAUGCUAUAUUAU,0.415
UUUUACUUUUAUCAUCAAACAUCUGGUGUUUUAAUUUACUUUUUUUUUUAAUGCUGUUCCUCAUGUACAUGACUUAAAAAUGUCACCAAGGCAUCAAAAUGAGUUGACAG,0.454
CACUUGGCUCCCAUAGCCCUCUUGAUGGAUCACGUAAAACUGAAAGGCAGCGGGGAGCAGACAAAGAUGAGGUCUACACUGUCCUUCAUGGGGAUUAAAGCUAUGGUUAU,0.493
CUGUGUCCUUUGCGUUCCUCGUUUAAGCAAAAGAAGUUAGUAGCUAAUUCUAUCACGAAUGUUCUUGUCUGUGUACAGUUUUUAGAACAUUACAAAGGAUUUGUUUGCUU,0.257

# Block 3
# Target: RING finger protein unkempt homolog, zinc fingers 1-6, GST-SBP tag (UNK, Homo sapiens, UniProt Q9C0B0, residues 30-357)
# Sequence of UniProt Q9C0B0 (30-357, looked up): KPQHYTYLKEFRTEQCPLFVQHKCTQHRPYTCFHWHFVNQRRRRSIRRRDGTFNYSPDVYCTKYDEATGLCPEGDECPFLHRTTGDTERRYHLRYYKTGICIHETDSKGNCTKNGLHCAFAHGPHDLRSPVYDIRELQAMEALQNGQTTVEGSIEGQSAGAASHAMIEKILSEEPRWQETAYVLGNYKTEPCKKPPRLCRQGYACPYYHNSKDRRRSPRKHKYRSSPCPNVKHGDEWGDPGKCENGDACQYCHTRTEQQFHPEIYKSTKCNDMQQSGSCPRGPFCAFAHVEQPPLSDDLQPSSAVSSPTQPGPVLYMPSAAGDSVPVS
# Method: RNA Bind-n-Seq
# Molecule type: RNA
# Medium: in vitro
# Concentration: not given
# Notes: RNA with constant flanks, human and mouse sites, ends assumed
# Baseline: input RNA pool
# Reading: higher = stronger binding
# All sequences stand within: GGGAGUUCUACAGUCCGACGAUC … CAACAGAGGAUUGAGCAUCA
Strand,bound/input enrichment [ratio]
CCCCACCCCUUUGCCUCUUUCCACCCGGGCCUCAACCCUUUGGAGCGGGAGAGACUGGCACUAGCAGGUCCUCAGCUGCGGCCUGAGAUGAGUUACCCAGACAGACUGGCAGCCGAGCGC,0.108
AUUCCAUAUUUAUUACGACUGAGACAAAUUAAGGAUGAAACUCUUCAGGCUGCAGUUAGAGAAAUUUUGGCCCUAAUUGGCUAUGUGGAUCCAGUGAAAGGGAGAGGAAUCCGAAUUCUC,0.626
CGUGGGAAAACUAGAGCUGAAACAAUGGGACCCAUGGGUUGGAUGAAGUGUCCUCUUGCUAGCACCAAUAAAAGAUUUCUAAUUAACACAAUUAAAAACACAUUGCCCUCUCAUAAAGAG,21.5
UUCAACAGAAGAAAAGUAAUGGACUCCGAUGAAGACGACGCCGAUUACUAAGAGGACGCACUUAGACAGACUUCCGGAGCAGUGUCUAGGACAGUCACCACCUUGUAAAUGUUUACUUUG,0.12
UUGUCUCCUGCAUUCCAUCAAGCACUACUCUCUUUUUGUCGAAUGUCAGCAGAUAGUCGUUUAGGAUACGAGGUGUCUCGUAUUGCAGACAGUGAAAAAAGCGUUAUGUUAAUGCUGGGA,0.264
CAGGUAUUUAUAGUGAAUCAUACUGUAAAAAAGAGGUAGCAUGAUAUGCUGGAAAGCAUAUUAGACUAGGAGUCAAGACCUGGUUUCUAGUCUUGGUUUUGCCAUUAAUGUGCUGCAUGA,0.208

# Other studies, line by line
Substance,target,assay,test system,conditions,scale,quantity,value
"PhoQ, residues 284 288 289 292 302 303 GLASVI","PhoP, residues 12 14 15 18 19 VHSCL (Escherichia coli, UniProt P23836)","Sort-seq, measured: YFP reporter",E. coli,"PhoQ-PhoP variant library, together with: 10 µM Mg2+","baseline: high Mg2+ state, higher = stronger signaling",fold induction,6.56

# Some of these lines once more (block 3):
Strand,bound/input enrichment [ratio]
CCCCACCCCUUUGCCUCUUUCCACCCGGGCCUCAACCCUUUGGAGCGGGAGAGACUGGCACUAGCAGGUCCUCAGCUGCGGCCUGAGAUGAGUUACCCAGACAGACUGGCAGCCGAGCGC,0.108
UUCAACAGAAGAAAAGUAAUGGACUCCGAUGAAGACGACGCCGAUUACUAAGAGGACGCACUUAGACAGACUUCCGGAGCAGUGUCUAGGACAGUCACCACCUUGUAAAUGUUUACUUUG,0.12
